Measured values gathered from unrelated publications.
Each line is one published result; not all experiments were run side by side. “And” joins repeats or separate records; there may be more than shown. Numbers after ± are the reported error.
Gria2/Glutamate receptor 3: Gria2/Glutamate receptor 3 (Rattus norvegicus, UniProt P19491+P19492)
SLC6A9: Sodium- and chloride-dependent glycine transporter 1 (SLC6A9, Homo sapiens, UniProt P48067)
USP14: Ubiquitin carboxyl-terminal hydrolase 14 (USP14, Homo sapiens, UniProt P54578)
PPO3: PPO3 (Agaricus bisporus, UniProt C7FF04)

SMILES	target	test	test system	conditions	scale	endpoint	value
Nc1ncc2c(n1)-c1c([nH]c3ccc(C4=CCOCC4)cc13)CCC2	Tyrosine-protein kinase ABL1, non-phosphorylated (ABL1, Homo sapiens, UniProt P00519, F317L)	binding, competition with immobilised ligand	–	1 µM	–	remaining binding	74%
O=C(O)Cc1cc2c(cc1C(=O)c1cccc(I)c1)OCO2	Gria2/Glutamate receptor 3	glutamate-evoked current, whole-cell patch clamp	HEK-293T	concentration not given	baseline: glutamate alone	current amplitude ratio	3.39 ± 0.2
Cc1ncc2[nH]c(=O)n(-c3cnc(Oc4cccc5c4C(C)(C)CO5)c(Cl)c3C)c2n1	Voltage-gated potassium channel KCNC1 (KCNC1, Homo sapiens, UniProt P48547)	potassium current, manual patch clamp	–	1 µM, prepulse 30 s, test +40 mV	–	availability V1/2	-37.7 ± 5.4 mV
COc1cc(Nc2nc(C)cc(-c3cnn4nc(OC)ccc34)n2)cc(C(F)(F)F)c1	Phosphatidylinositol 4,5-bisphosphate 3-kinase catalytic subunit alpha isoform (PIK3CA, Homo sapiens, UniProt P42336, C420R)	inhibitor	–	1 µM	baseline: control	remaining activity	76%
N#CN1CC[C@H](C(=O)Nc2nc3c(s2)CN(C(=O)Cn2cc(CNC(=O)CCCC[C@@H]4SC[C@@H]5NC(=O)N[C@@H]54)nn2)CC3)C1	(E3-independent) E2 ubiquitin-conjugating enzyme (UBE2O, Homo sapiens, UniProt Q9C0C9)	probe binding, affinity probe, neutravidin pull-down LC-MS/MS	HEK293T, cell lysate	5 µM, 1 h, single replicate, unit not given	higher = more pulled down	iBAQ abundance	582000 and 1.35e+06 and 915000
COc1ccc(C(OCCN2CCCC(C(=O)O)C2)(c2ccc(OC)cc2)c2ccc(C(C)=O)cc2)cc1 (centres unmarked)	SLC6A9	cell-free assay	–	1 µM	–	remaining signal	81.6%
COc1cc(-c2cn(C)c(=O)c3cnccc23)cc(OC)c1CN(C)C	Histone acetyltransferase p300 (EP300, Homo sapiens, UniProt Q09472)	–	–	–	–	ΔTm	0.9 °C
CCCC[C@H](NC(=O)[C@H](CCC(N)=O)NC(=O)[C@H](CCC(=O)O)NC(=O)[C@@H]1CCCN1C(=O)[C@@H](NC(=O)[C@H](C)NC(=O)[C@H](CC(N)=O)NC(=O)[C@H](CC(=O)O)NC(=O)CNC(=O)[C@@H]1CCCN1C(=O)[C@H](Cc1ccc(O)cc1)NC(=O)[C@@H](NC(=O)[C@@H]1CCCN1C(=O)[C@H](CCC(=O)O)NC(=O)[C@H](CC(C)C)NC(=O)[C@@H]1CCCN1C(=O)[C@H](C)N)C(C)C)[C@@H](C)O)C(=O)N[C@@H](C)C(=O)N[C@@H](CCC(N)=O)C(=O)N[C@@H](Cc1ccc(O)cc1)C(=O)N[C@@H](C)C(=O)N[C@@H](CCCCNC(=O)c1ccc2c(c1)C(=O)OC21c2ccc(N(C)C)cc2Oc2cc(N(C)C)ccc21)C(=O)N[C@@H](CC(=O)O)C(=O)N[C@@H](CC(C)C)C(=O)N[C@@H](CCCNC(=N)N)C(=O)N[C@@H](CCCNC(=N)N)C(=O)N[C@@H](Cc1ccc(O)cc1)C(=O)N[C@H](C(=O)N[C@@H](CC(N)=O)C(=O)N[C@@H](CCCC)C(=O)N[C@@H](CC(C)C)C(=O)N[C@H](C(=O)N[C@@H](CCCNC(=N)N)C(=O)N1CCC[C@H]1C(=O)N[C@@H](CCCNC(=N)N)C(=O)N[C@@H](Cc1ccc(O)cc1)C(N)=O)[C@@H](C)O)[C@@H](C)CC	Neuropeptide Y receptor type 4 (NPY4R, Homo sapiens, UniProt P50391, N285A)	NanoBRET binding	–	Nluc-tagged receptor N285A, unit not given	net BRET ratio	BRETmax	0.043 ± 0.0009
O=C(N1CCCC1)n1cc(-c2ccc(-c3ccccc3)cc2)nn1	Protein ABHD13 (Abhd13, Mus musculus, UniProt Q80UX8)	probe labelling, inhibitor, competitive ABPP-SILAC, measured: Abhd13	mouse T cells	concentration not given, 4 h, in situ, single peptide	baseline: treated over DMSO, lower = more inhibition	SILAC ratio	1.19 and 1.15 and 1.3
CCCCCCCO[C@H]1[C@H](OC)O[C@H](CO)[C@@H](O)[C@H](O)[C@@H]1O	Type 1 fimbrin D-mannose specific adhesin, lectin domain (fimH, Escherichia coli K-12, UniProt P08191)	binding, isothermal titration calorimetry	–	25 °C, global fit of two titrations	–	ΔG	-7.72 kcal/mol
CCCCCC(O)/C=C/C=O (centres unmarked)	Ketosamine-3-kinase, C24 (FN3KRP, Homo sapiens, UniProt Q9HA64)	IA-probe cysteine labelling, covalent modifier, competitive isoTOP-ABPP	Ramos proteome	100 µM, in vitro	baseline: DMSO over compound, higher = stronger blockade	isoTOP-ABPP ratio	15
CC[C@H](C)[C@H](NC(=O)[C@@H](NC(=O)[C@@H](NC(=O)[C@@H](NC(=O)[C@H](CCCNC(=N)N)NC(=O)[C@H](CCC(=O)O)NC(=O)[C@H](CCC(=O)O)NC(=O)[C@H](C)NC(=O)[C@H](CCC(=O)O)NC(=O)CNC(=O)[C@H](C)NC(=O)CN)C(C)C)C(C)C)C(C)C)C(=O)N[C@@H](CO)C(=O)N[C@@H](CO)C(=O)N[C@@H](CO)C(=O)N[C@@H](CCC(=O)O)C(=O)N[C@@H](CC(=O)O)C(=O)N[C@@H](CO)C(=O)N[C@@H](CC(=O)O)C(=O)N[C@@H](C)C(=O)N[C@@H](CCC(=O)O)C(=O)N[C@@H](CC(N)=O)C(=O)N[C@@H](CO)C(=O)N[C@@H](CO)C(=O)N[C@@H](CO)C(=O)N[C@@H](CCCNC(=N)N)C(=O)N[C@@H](Cc1ccc(O)cc1)C(=O)O	Small ubiquitin-related modifier 1, residues 17-97 (Homo sapiens, UniProt P63165, C52A)	isothermal titration calorimetry	–	pH 7.4, N-terminally truncated SUMO1	–	-TΔS	-7.9 ± 0.21 kcal/mol
CC1=CC(C)=[N+]2C1=C(CCCN1CCN(c3ccccc3)CC1)c1c(C)cc(C)n1[B-]2(F)F	SLC6A9	cell-free assay	–	1 µM	–	remaining signal	105%
O=C1c2ccccc2C2(O)NC(=S)NC12O (centres unmarked)	USP14	enzyme activity, inhibitor	–	17 µM	–	inhibition	30%
COC(=O)Cc1cc2c(cc1C(=O)c1ccccc1I)OCO2	Gria2/Glutamate receptor 3	glutamate-evoked current, whole-cell patch clamp	HEK-293T	concentration not given, pH 7.4, holding potential -60 mV, with: 10 mM glutamate	–	current amplitude	319 ± 31 pA
O=C1c2sc(-c3ccc(N4CCC(F)C4)nc3F)nc2CCN1c1cccnc1 (centres unmarked)	TAR DNA-binding protein 43, aggregated (TARDBP, Homo sapiens, UniProt Q13148)	radioligand binding	human, FTLD-TDP type B sarkosyl-insoluble extract	200 nM	–	specific binding	3.93 nM
Cc1cc(C)nc(C(=O)N/N=C/c2cc(C)n(C3CCCC3)c2C)n1	USP14	enzyme activity, inhibitor	–	17 µM	–	inhibition	77%
Cc1cc(=O)oc2cc(NC(=O)CCCCCCC(=O)NO)ccc12	Histone deacetylase 8 (HDAC8, Homo sapiens, UniProt Q9BY41)	ITC	Tris-HCl buffer	concentration not given, 293 K	–	binding stoichiometry	0.9

SMILES	target	test	test system	conditions	scale	endpoint	value
CCCCCCCCCCCCCCCC(=O)NCCCC[C@H](NC(=O)[C@H](CCC(=O)O)NC(=O)[C@H](Cc1ccc(O)cc1)NC(=O)[C@H](CCC(=O)O)NC(=O)COCC(=O)NCCCOCCOCCOCCCNC(=O)[C@H](Cc1c[nH]c2ccccc12)NC(=O)[C@H](CCCCN)NC(=O)[C@H](C)NC(=O)[C@H](CCCCNC(=N)N)NC(=O)[C@H](CCC(N)=O)NC(=O)[C@H](Cc1c[nH]cn1)NC(=O)[C@H](CCSC)NC(=O)[C@H](CC(C)C)NC(=O)[C@H](CCC(N)=O)NC(=O)[C@@H](NC(=O)[C@H](CCC(=O)O)NC(=O)C(C)(C)NC(=O)[C@@H](NC(=O)C(C)(C)N)C(C)C)[C@@H](C)CC)C(=O)N[C@@H](CCC(=O)O)C(=O)N[C@@H](Cc1ccc(O)cc1)C(=O)N[C@@H](CCC(=O)O)C(N)=O	Parathyroid hormone/parathyroid hormone-related peptide receptor (PTH1R, Homo sapiens, UniProt Q03431)	agonist	Saos-2 with cAMP reporter	316 pM, 30 min, ligand-on phase	higher = more cAMP	cAMP luminescence AUC	44 a.u.
CC(=O)C12NC(C)(C)CC1(C)C(=O)C1=C2c2c(c3c4n2C(C)(C)CC2=C4C4(CC(C)(C)NC(C)(C4)C2=O)CC3(C)C)C(=O)C(C)(C)N1 (single isomer, unassigned; (+))	Neuronal acetylcholine receptor; alpha3/beta4 (Homo sapiens, UniProt P30926+P32297)	ion current, agonist, whole-cell patch clamp	HEK293T	10 µM	–	activation	4.94 ± 0.03%
Cc1cc(=O)oc2nc(S)nc(O)c12	USP14	enzyme activity, inhibitor	–	17 µM	–	inhibition	16%
CCCCCCOc1ccc(C(=O)OCCN2CC=CCC2)cc1	Muscarinic acetylcholine receptor M1 (CHRM1, Homo sapiens, UniProt P11229)	–	membranes	100 µM, 15 h, with: carbachol	baseline: control	Emax	1.38 ± 0.05 fold
Oc1cc(O)c2cc(O[C@@H]3OC[C@H](O)[C@H](O)[C@H]3O)c(-c3ccc(O)c(O)c3)[o+]c2c1	PPO3	fluorescence quenching	–	318 K	–	binding free energy ΔG	-5.282 ± 0.00478 kcal/mol
CC(C)Oc1cc(Cl)ccc1CNc1cc(-c2ccccc2)nc2ncnn12	G-protein coupled receptor 3 (GPR3, Homo sapiens, UniProt P46089, R152A)	cAMP level, cAMP GloSensor	–	300 nM	higher = more cAMP	cAMP luminescence	23800 a.u. and 28300 a.u. and 17700 a.u. and 27500 a.u.
C1=Cc2ccccc2N(Cc2cc(-c3ccc(OCc4ccccc4)cc3)no2)c2ccccc21	PPO3	enzyme activity, inhibitor	–	concentration not given	–	apparent Km	4.39 mM
O=C(O)Cc1cc2c(cc1C(=O)c1cccc(Br)c1)OCO2	Gria2/Glutamate receptor 3	whole-cell patch clamp	HEK-293T	concentration not given, with: glutamate	–	deactivation time constant	6.6 ± 0.3 ms
CC[C@H](C)[C@@H]1NC(=O)[C@H](Cc2ccccc2)NC(=O)[C@H](CCC(=O)O)NC(=O)[C@H](CCCNC(=N)N)NC(=O)CNC(=O)[C@@H](NC(=O)[C@H](CC(C)C)NC(=O)[C@H](CCCNC(=N)N)NC(=O)[C@@H](NC(=O)CNC(=O)[C@H](Cc2ccc(O)cc2)NC(=O)[C@@H]2CCCN2C(=O)[C@H](C)NC(=O)[C@H](C)NC(=O)[C@@H](N)CCCNC(=N)N)C(C)C)CSSC[C@@H]2NC(=O)[C@@H](NC(=O)[C@H](CO)NC(=O)[C@H](CO)NC(=O)[C@H](CO)NC(=O)[C@H](CC(C)C)NC(=O)CNC(=O)[C@H](C)NC(=O)[C@H](CC(C)C)NC(=O)[C@@H](NC(=O)[C@@H](N)CC(=O)O)C(C)C)CSSC[C@H](NC(=O)CNC(=O)[C@H](Cc3c[nH]c4ccccc34)NC(=O)[C@H](CCCCN)NC2=O)C(=O)N[C@@H](CO)C(=O)N[C@@H](CCCCN)C(=O)N[C@@H](CO)C(=O)N[C@@H](CCC(=O)O)C(=O)N[C@@H]([C@@H](C)CC)C(=O)N[C@@H](CO)C(=O)N[C@@H](CO)C(=O)N[C@@H](CC(C)C)C(=O)N[C@H](C(=O)O)CSSC[C@@H](C(=O)NCC(=O)NCC(=O)N[C@@H](CO)C(=O)N[C@@H](CCCNC(=N)N)C(=O)N[C@@H](Cc2c[nH]c3ccccc23)C(=O)O)NC(=O)[C@H]([C@@H](C)O)NC(=O)[C@H](Cc2ccccc2)NC(=O)[C@H]([C@@H](C)CC)NC(=O)[C@H](C(C)C)NC(=O)[C@H](C)NC(=O)[C@H](CCCNC(=N)N)NC1=O	Relaxin-3 receptor 2 (RXFP4, Homo sapiens, UniProt Q8TDU9, D104A)	–	–	D104A mutant	baseline: wild type	change in Emax	-25.7% and -25% and -12.8%
C[C@](C(=O)NC1CCOCC1)(c1cncnc1)N(C(=O)[C@H](F)Cl)c1ccc(OC(F)(F)Cl)cc1	Matrix metalloproteinase-9 (MMP9, Homo sapiens, UniProt P14780)	enzyme activity, inhibitor	–	10 µM	–	remaining activity	102%
N[C@H]1CC[C@H](Nc2nccc(-c3cccnc3Oc3ccc(NC(=O)NC4CC4)c4ccccc34)n2)CC1	Copine-3 (CPNE3, Homo sapiens, UniProt O75131)	kinobead competition pulldown, measured: CPNE3	HEK293/HCT116 lysate mixture	10 µM, 1 h, 4 °C	lower = stronger competition	log2 LFQ intensity	20.5 and 20.8 and 20 and 19.9
Cc1ccc(C2CCN(C3CCCCC3O)CC2)cc1 (racemic)	Sigma non-opioid intracellular receptor 1 (SIGMAR1, Homo sapiens, UniProt Q99720)	–	rat liver (sigma2), human sigma1	–	baseline: Ki sigma2 over Ki sigma1	selectivity ratio	4.4
Cc1ncsc1-c1ccc(CNC(=O)[C@@H]2C[C@@H](O)CN2C(=O)[C@@H](NC(=O)C2(F)CC2)C(C)(C)C)c(OCCC2CCN(c3nc(NCC(C)(C)C4(O)CCOC4)nc(N4CCC[C@H]4Cn4ccnn4)n3)CC2)c1 (some centres unmarked)	VHL/BRD9, with Elongin B/C (Homo sapiens, UniProt P40337+Q9H8M2)	native mass spectrometry	–	5 µM, with: BRD9 and VCB at 5 µM	baseline: unbound BRD9	ternary complex formation	20%
CC1(C)C[C@@H](Nc2cccc(-c3sc(C(=O)O)c(OCC(=O)O)c3Cl)c2)CCN1S(=O)(=O)Cc1cccc(NC(=O)CN2CCC(c3ccc4c(c3)oc(=O)n4C3CCC(=O)NC3=O)CC2)c1 (some centres unmarked)	Tyrosine-protein phosphatase non-receptor type 2 (PTPN2, Homo sapiens, UniProt P17706, E41K/R35E/R43E)	degrader, bio-layer interferometry	–	31.3 nM	higher = more binding	BLI binding response	0.201 a.u.
COC(=O)[C@@]1(C)C=C(C(=O)Nc2cccc(C(=O)Nc3ccc(Nc4nccc(-c5cccnc5)n4)c(C)c3)c2)C(=O)CC1	Mitogen-activated protein kinase 8 (MAPK8, Homo sapiens, UniProt P45983)	enzyme activity, inhibitor	–	8.36e-05 µM, 18 h, unit not given, with: GSH 10 mM pre-incubation	baseline: vehicle	remaining activity	0.891
Cc1oc2c(c1C(=O)NCc1ccccn1)C(=O)c1ccccc1C2=O	USP14	enzyme activity, inhibitor	–	17 µM	–	inhibition	22%
C=CC(=O)N1CC2(CCN(c3nc(OC4CCN(CCCOC)CC4)nc4c(OCC(F)(F)F)c(-c5c(C)ccc6[nH]ncc56)c(C5CC5)cc34)CC2)C1	GTPase KRas, GDP-bound (KRAS, Homo sapiens, UniProt P01116, Q61R)	SPR	–	–	–	dissociation rate constant koff	0.0294 ± 0.0014 s⁻¹
